{"data": "Results from different studies", "note": "Every numbered part comes from another study and shows a few of its results, in no order. Substitutions count along the parent as printed."}
{"data": "Sample 1", "target": "CCNE2, cyclin fold, Cln2 fusion (human)", "technique": "yeast growth competition, sequencing", "medium": "yeast", "setting": "weak parent motif", "baseline": "not given", "reading": "higher = stronger binding", "starting sequence": "ORC1 docking peptide (human); PRARKRLELGNLG"}
{"Substitution": "PRARKRLELGNLA [G13A]", "normalised enrichment score": -0.182}
{"Substitution": "PRARKALELGNLG [R6A]", "normalised enrichment score": 0.287}
{"Substitution": "PRARKRLELGNPG [L12P]", "normalised enrichment score": 0.905}
{"Substitution": "PRARKRAELGNLG [L7A]", "normalised enrichment score": 0.0432}
{"Substitution": "PRADKRLELGNLG [R4D]", "normalised enrichment score": 0.295}
{"Substitution": "GRARKRLELGNLG [P1G]", "normalised enrichment score": 0.372}
{"Substitution": "PRARKRLDLGNLG [E8D]", "normalised enrichment score": 1.6}
{"Substitution": "PLARKRLELGNLG [R2L]", "normalised enrichment score": -0.558}
{"Substitution": "PRARKRYELGNLG [L7Y]", "normalised enrichment score": 0.883}
{"Substitution": "PRARMRLELGNLG [K5M]", "normalised enrichment score": 0.595}
{"Substitution": "PRARPRLELGNLG [K5P]", "normalised enrichment score": 0.882}
{"Substitution": "PRARKCLELGNLG [R6C]", "normalised enrichment score": 0.728}
{"Substitution": "PRAWKRLELGNLG [R4W]", "normalised enrichment score": 0.498}
{"Substitution": "PRARERLELGNLG [K5E]", "normalised enrichment score": 0.188}
{"Substitution": "PRARKRLEFGNLG [L9F]", "normalised enrichment score": 2.36}
{"data": "Sample 2", "target": "Prothrombin, mature alpha-thrombin (F2, Homo sapiens, UniProt P00734)", "technique": "aptamer microarray, sandwich", "molecule type": "DNA with 2'F-ANA", "medium": "in vitro", "concentration": "200 nM", "setting": "whole 15-mer aptamer, many near background", "with": "Cy3 exosite-II aptamer, 400 nM", "reading": "higher = stronger binding", "sequence": "GGTTGGTGTGGTTGG"}
{"Modification": "2'F-ANA at 2 3 6 7 9 10 11 12 14 15", "mean fluorescence intensity [a.u.]": 233}
{"Modification": "2'F-ANA at 3 5 6 8 13 14 15", "mean fluorescence intensity [a.u.]": 55.9}
{"Modification": "2'F-ANA at 1 8 10 11 13", "mean fluorescence intensity [a.u.]": 51}
{"Modification": "2'F-ANA at 1 6 10 11 14 15", "mean fluorescence intensity [a.u.]": 50.5}
{"Modification": "2'F-ANA at 3 4 6 10 11 12 14", "mean fluorescence intensity [a.u.]": 174}
{"Modification": "2'F-ANA at 1 3 5 8 11 13 15", "mean fluorescence intensity [a.u.]": 74.7}
{"Modification": "2'F-ANA at 1 2 3 6 9 10 11 15", "mean fluorescence intensity [a.u.]": 70.4}
{"Modification": "2'F-ANA at 1 2 4 6 8 10 11 14", "mean fluorescence intensity [a.u.]": 47.9}
{"Modification": "2'F-ANA at 1 4 5 6 8 9 15", "mean fluorescence intensity [a.u.]": 60.2}
{"Modification": "2'F-ANA at 1 2 3 6 7 8 12 14 15", "mean fluorescence intensity [a.u.]": 97.1}
{"Modification": "2'F-ANA at 2 4 7 8 10 12 13 14", "mean fluorescence intensity [a.u.]": 66.3}
{"Modification": "2'F-ANA at 1 2 4 9 10 13 14 15", "mean fluorescence intensity [a.u.]": 46.2}
{"Modification": "2'F-ANA at 1 2 3 4 7 9 10 12 13 15", "mean fluorescence intensity [a.u.]": 75}
{"Modification": "2'F-ANA at 2 4 5 6 8 9 10 11 15", "mean fluorescence intensity [a.u.]": 47.6}
{"data": "Sample 3", "target": "Centromere-binding protein 1, full length, N-terminal tag (CBF1, Saccharomyces cerevisiae, UniProt P17106, residues 1-351)", "technique": "protein-binding microarray", "molecule type": "double-stranded DNA, one strand shown", "medium": "in vitro", "concentration": "0.8 µM", "setting": "whole 60-bp probe, no competitor", "reading": "higher = stronger binding", "sequence of UniProt P17106 (whole entry, looked up)": "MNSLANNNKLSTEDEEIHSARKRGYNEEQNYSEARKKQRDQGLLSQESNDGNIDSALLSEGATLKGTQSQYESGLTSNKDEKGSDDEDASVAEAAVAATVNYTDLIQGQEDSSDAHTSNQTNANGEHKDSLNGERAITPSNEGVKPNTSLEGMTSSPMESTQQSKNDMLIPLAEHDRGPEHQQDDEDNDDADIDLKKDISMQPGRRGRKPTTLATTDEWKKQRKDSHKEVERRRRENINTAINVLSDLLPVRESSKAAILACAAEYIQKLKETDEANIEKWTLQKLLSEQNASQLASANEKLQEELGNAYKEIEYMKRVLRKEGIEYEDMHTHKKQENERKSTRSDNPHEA"}
{"Sequence": "CTAATACAGAATCTGATCATGACTATCAATCGGTTCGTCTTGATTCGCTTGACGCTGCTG", "fluorescence intensity [a.u.]": 608}
{"Sequence": "TGTACGAAGCTATGTCATGTTTCTATAGTAGTTAGGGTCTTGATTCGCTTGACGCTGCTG", "fluorescence intensity [a.u.]": 569}
{"Sequence": "GAAGTTTAGCATTCACGTGTAACTGCAATGAATTAGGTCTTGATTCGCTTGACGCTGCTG", "fluorescence intensity [a.u.]": 4210}
{"Sequence": "GAAAAGATCTGTCATCAGTTGTTTTGCGTGAAATAGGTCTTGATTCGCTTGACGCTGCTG", "fluorescence intensity [a.u.]": 566}
{"Sequence": "GAATAGCGCGTATAGCACGTAGAGTAAAGTTATTAGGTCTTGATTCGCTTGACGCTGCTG", "fluorescence intensity [a.u.]": 517}
{"Sequence": "GAATTTCTGAATGATCAGCTGTTTAAGTTCGAATAGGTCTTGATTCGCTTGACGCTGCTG", "fluorescence intensity [a.u.]": 910}
{"Sequence": "GAAAACACGTGTACGCACGTAGCCAACGATTGATAGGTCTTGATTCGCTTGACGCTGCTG", "fluorescence intensity [a.u.]": 6430}
{"Sequence": "CTATTTTTTGATATCCACACGTTATTGAGCTCATTCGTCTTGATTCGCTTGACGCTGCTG", "fluorescence intensity [a.u.]": 545}
{"data": "Single results of other studies"}
{"Substance": "PhoQ, residues 284 288 289 292 302 303 TNSAEL", "target": "PhoP, residues 12 14 15 18 19 MHTVL (Escherichia coli, UniProt P23836)", "test": "Sort-seq, item: YFP reporter", "system": "E. coli", "setting": "PhoQ-PhoP variant library, with: 10 µM Mg2+", "how to read": "baseline: high Mg2+ state, higher = stronger signaling", "quantity": "fold induction", "result": 20.7}
{"note": "Some of these lines once more (sample 2):"}
{"Modification": "2'F-ANA at 1 2 4 6 8 10 11 14", "mean fluorescence intensity [a.u.]": 47.9}
{"Modification": "2'F-ANA at 1 3 5 8 11 13 15", "mean fluorescence intensity [a.u.]": 74.7}
